{"data": "Published values collected from several papers", "note": "Numbered parts are unrelated; each lists some results of a single study. Positions count from the first letter of the parent shown.", "UniProt O75914, sequence (whole entry, looked up)": "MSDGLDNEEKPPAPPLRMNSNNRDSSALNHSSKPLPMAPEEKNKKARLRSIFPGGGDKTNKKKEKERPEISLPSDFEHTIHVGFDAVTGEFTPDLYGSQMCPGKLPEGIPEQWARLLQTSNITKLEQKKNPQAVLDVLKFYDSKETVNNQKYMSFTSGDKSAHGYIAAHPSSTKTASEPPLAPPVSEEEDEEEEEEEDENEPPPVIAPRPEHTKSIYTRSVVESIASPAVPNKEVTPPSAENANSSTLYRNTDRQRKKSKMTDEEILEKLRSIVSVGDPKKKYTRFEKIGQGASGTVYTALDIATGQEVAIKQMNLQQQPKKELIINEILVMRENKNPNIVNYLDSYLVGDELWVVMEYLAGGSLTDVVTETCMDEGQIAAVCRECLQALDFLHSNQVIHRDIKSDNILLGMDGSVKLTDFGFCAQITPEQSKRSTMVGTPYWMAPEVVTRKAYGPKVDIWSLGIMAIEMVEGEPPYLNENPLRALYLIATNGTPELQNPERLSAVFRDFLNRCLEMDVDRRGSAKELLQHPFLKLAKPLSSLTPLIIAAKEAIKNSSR", "UniProt Q96SB4, sequence (whole entry, looked up)": "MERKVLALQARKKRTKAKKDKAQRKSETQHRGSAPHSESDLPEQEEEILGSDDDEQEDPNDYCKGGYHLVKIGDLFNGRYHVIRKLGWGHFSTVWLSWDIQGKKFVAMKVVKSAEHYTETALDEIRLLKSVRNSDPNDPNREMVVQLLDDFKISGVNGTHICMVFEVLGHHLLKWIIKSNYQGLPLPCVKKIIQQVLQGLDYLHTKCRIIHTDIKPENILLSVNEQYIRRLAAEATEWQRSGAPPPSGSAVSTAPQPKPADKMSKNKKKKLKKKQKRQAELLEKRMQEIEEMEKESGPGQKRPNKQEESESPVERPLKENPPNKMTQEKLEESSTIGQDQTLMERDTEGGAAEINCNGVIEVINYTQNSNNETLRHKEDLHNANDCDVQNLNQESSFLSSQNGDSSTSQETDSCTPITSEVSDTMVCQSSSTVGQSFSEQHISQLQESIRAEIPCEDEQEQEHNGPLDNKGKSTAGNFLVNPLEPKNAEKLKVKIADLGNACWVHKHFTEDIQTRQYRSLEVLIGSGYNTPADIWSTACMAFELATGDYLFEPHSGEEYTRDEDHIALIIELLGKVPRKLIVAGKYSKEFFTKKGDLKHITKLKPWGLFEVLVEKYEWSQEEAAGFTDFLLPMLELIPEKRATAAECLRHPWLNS", "UniProt P32298, sequence (whole entry, looked up)": "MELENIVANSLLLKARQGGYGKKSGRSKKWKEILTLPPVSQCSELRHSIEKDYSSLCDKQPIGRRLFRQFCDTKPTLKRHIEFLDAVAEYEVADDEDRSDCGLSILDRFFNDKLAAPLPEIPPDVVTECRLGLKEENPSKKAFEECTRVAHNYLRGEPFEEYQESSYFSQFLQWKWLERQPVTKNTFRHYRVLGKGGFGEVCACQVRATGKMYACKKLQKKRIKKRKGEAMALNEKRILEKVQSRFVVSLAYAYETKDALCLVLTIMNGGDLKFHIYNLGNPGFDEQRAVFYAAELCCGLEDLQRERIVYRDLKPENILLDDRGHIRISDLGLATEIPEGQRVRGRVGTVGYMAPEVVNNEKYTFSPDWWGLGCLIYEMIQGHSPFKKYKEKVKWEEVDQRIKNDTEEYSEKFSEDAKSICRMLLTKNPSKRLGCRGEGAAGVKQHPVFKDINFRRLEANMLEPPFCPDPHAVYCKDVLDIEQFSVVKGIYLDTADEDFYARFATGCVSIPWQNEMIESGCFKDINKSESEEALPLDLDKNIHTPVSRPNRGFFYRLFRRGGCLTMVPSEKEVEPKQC", "UniProt O94806, sequence (whole entry, looked up)": "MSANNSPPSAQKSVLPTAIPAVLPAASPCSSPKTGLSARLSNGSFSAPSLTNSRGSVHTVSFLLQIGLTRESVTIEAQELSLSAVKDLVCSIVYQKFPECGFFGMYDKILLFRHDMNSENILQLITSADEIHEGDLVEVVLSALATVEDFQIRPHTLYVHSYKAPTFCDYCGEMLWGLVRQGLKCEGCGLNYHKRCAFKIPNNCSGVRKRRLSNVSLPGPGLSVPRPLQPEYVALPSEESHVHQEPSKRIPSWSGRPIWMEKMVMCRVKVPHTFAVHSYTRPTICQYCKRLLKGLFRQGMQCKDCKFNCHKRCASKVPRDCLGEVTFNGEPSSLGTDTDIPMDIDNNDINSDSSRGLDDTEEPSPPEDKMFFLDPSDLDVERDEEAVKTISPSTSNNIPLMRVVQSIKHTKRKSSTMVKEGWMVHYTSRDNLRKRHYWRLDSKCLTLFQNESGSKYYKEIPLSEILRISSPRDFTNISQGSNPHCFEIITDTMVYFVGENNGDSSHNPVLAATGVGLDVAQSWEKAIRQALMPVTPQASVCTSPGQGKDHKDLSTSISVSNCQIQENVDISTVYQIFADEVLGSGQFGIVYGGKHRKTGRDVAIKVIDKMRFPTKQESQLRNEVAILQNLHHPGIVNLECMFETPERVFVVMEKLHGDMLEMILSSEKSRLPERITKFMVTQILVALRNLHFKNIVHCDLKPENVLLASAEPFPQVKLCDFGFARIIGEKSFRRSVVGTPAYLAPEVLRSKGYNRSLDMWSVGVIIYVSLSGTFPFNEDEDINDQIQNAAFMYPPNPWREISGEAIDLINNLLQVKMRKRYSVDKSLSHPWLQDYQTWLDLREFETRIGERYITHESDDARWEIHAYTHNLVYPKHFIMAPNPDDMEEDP", "UniProt P06493, sequence (whole entry, looked up)": "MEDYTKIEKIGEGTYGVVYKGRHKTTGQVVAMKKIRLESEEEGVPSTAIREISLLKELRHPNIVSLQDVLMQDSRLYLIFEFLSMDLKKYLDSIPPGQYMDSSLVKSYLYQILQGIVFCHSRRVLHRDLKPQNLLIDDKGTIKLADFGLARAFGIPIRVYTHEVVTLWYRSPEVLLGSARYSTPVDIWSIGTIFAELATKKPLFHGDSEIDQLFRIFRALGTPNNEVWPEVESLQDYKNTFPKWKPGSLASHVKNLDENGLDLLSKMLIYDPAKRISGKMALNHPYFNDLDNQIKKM", "UniProt Q56UN5, sequence (whole entry, looked up)": "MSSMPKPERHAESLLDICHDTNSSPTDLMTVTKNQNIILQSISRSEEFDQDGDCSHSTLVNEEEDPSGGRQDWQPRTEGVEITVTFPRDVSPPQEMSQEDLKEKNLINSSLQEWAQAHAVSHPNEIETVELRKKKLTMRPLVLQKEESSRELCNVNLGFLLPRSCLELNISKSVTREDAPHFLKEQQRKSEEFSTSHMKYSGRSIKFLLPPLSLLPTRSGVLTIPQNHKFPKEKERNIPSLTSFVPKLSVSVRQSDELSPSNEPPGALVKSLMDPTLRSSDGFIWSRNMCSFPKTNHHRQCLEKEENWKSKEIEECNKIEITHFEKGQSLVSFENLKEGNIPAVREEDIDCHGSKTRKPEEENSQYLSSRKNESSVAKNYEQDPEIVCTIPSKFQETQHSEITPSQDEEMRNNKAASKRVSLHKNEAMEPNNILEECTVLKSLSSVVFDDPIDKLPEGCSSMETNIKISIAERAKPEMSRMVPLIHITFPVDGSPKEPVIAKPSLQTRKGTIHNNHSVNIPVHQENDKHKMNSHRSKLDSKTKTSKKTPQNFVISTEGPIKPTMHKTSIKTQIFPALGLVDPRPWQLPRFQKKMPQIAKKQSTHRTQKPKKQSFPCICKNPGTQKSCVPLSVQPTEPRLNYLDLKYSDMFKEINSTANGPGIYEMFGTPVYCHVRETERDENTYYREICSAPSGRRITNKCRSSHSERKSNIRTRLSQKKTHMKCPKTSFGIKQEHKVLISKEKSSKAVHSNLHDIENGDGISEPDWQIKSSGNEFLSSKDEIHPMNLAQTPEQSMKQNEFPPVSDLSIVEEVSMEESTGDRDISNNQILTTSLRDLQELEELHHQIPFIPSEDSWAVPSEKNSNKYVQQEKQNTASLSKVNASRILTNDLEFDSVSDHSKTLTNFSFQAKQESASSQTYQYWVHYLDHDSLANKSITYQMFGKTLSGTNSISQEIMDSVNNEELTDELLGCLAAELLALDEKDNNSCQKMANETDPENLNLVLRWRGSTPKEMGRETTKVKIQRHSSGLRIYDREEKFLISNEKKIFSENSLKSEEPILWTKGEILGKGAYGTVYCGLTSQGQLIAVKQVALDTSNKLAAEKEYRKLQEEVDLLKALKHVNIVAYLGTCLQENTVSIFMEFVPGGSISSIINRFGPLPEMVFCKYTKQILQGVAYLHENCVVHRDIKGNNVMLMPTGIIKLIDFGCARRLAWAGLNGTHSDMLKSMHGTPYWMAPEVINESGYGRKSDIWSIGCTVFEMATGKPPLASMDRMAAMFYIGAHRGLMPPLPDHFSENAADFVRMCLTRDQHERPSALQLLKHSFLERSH", "UniProt Q52WX2, sequence (whole entry, looked up)": "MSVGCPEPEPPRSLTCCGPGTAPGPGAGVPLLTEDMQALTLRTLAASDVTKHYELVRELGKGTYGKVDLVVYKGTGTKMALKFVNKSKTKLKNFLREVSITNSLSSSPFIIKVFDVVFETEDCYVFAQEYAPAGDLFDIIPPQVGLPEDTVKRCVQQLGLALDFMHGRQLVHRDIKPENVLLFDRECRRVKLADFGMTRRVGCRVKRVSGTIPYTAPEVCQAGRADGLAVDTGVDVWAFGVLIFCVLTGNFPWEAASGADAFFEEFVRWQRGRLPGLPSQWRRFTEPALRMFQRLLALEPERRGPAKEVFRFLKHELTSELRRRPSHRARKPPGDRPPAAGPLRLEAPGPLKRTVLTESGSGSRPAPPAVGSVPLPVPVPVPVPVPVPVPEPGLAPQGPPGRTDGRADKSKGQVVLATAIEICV"}
{"data": "Set 1", "Structure (SMILES)": "CCOc1cc2ncnc(Nc3cccc(Br)c3)c2cc1OCC", "effect on": "enzyme activity", "action": "inhibitor", "concentration": "0.5 µM", "reference": "control"}
{"target": "MARK2 (Homo sapiens, UniProt Q7KZI7)", "remaining activity": "94.5%"}
{"target": "PAK3 (Homo sapiens, UniProt O75914)", "remaining activity": "97.6%"}
{"target": "GRK4 (Homo sapiens, UniProt P32298)", "remaining activity": "96.2%"}
{"target": "Cyclin-dependent kinase 1, with cyclin A (CDK1, Homo sapiens, UniProt P06493)", "remaining activity": "94.7%"}
{"target": "CLK3 (Homo sapiens, UniProt P49761)", "remaining activity": "85.3%"}
{"data": "Set 2", "target": "Sal-like protein 4, full length isoform B (SALL4, Homo sapiens, UniProt Q9UJQ4-2, residues 1-616)", "method": "universal PBM", "molecule type": "double-stranded DNA, one strand shown", "sample": "in vitro", "concentration": "not given", "notes": "8-mer, flanks averaged, mean of replicates", "reading": "higher = stronger binding"}
{"Sequence": "CGTAAGCA", "E-score": -0.161}
{"Sequence": "TAGATAGA", "E-score": 0.143}
{"Sequence": "CTACCCGA", "E-score": -0.0755}
{"Sequence": "TGTCTTAA", "E-score": 0.187}
{"Sequence": "CATACTAG", "E-score": 0.237}
{"Sequence": "CAATCCAG", "E-score": -0.168}
{"Sequence": "AGTCTAGA", "E-score": 0.0216}
{"Sequence": "AGGTCACG", "E-score": -0.346}
{"data": "Set 3", "target": "CCNF, cyclin fold, Cln2 fusion (human)", "method": "yeast growth competition, sequencing", "sample": "yeast", "notes": "weak parent motif", "reference": "not given", "reading": "higher = stronger binding", "starting sequence": "MASTL docking peptide (human); PMIAKNLMCELDE"}
{"Substitution": "PIIAKNLMCELDE [M2I]", "normalised enrichment score": 0.0809}
{"Substitution": "PMIAKNLMCELCE [D12C]", "normalised enrichment score": 0.249}
{"Substitution": "PMIAKNLMTELDE [C9T]", "normalised enrichment score": -0.108}
{"Substitution": "PMIAKNVMCELDE [L7V]", "normalised enrichment score": -0.615}
{"Substitution": "PMIALNLMCELDE [K5L]", "normalised enrichment score": -0.0509}
{"Substitution": "PMIAKTLMCELDE [N6T]", "normalised enrichment score": -0.251}
{"Substitution": "PMIAKNEMCELDE [L7E]", "normalised enrichment score": 0.0976}
{"Substitution": "PMIAKNLMCDLDE [E10D]", "normalised enrichment score": -0.0616}
{"data": "Set 4", "SMILES": "O=C1CCc2cc(Nc3cc(OC4CCOCC4)c([N+](=O)[O-])cc3Cl)ccc2N1", "effect on": "cell-free assay", "method": "competition with immobilised ligand", "concentration": "1 µM"}
{"target": "CDC42BPB (Homo sapiens, UniProt Q9Y5S2)", "remaining binding [%]": 90}
{"target": "Ribosomal protein S6 kinase alpha-4, N-terminal kinase domain (RPS6KA4, Homo sapiens, UniProt O75676)", "remaining binding [%]": 65}
{"target": "SRPK1 (Homo sapiens, UniProt Q96SB4)", "remaining binding [%]": 73}
{"target": "EGFR (Homo sapiens, UniProt P00533, L858R)", "remaining binding [%]": 100}
{"target": "MAP4K2 (Homo sapiens, UniProt Q12851)", "remaining binding [%]": 95}
{"target": "MAP3K6 (Homo sapiens, UniProt O95382)", "remaining binding [%]": 91}
{"target": "PRKD3 (Homo sapiens, UniProt O94806)", "remaining binding [%]": 92}
{"target": "EPHA7 (Homo sapiens, UniProt Q15375)", "remaining binding [%]": 75}
{"target": "CSNK1A1L (Homo sapiens, UniProt Q8N752)", "remaining binding [%]": 84}
{"target": "WNK3 (Homo sapiens, UniProt Q9BYP7)", "remaining binding [%]": 87}
{"target": "SBK1 (Homo sapiens, UniProt Q52WX2)", "remaining binding [%]": 97}
{"target": "MAP3K19 (Homo sapiens, UniProt Q56UN5)", "remaining binding [%]": 100}
{"target": "STK32C (Homo sapiens, UniProt Q86UX6)", "remaining binding [%]": 83}
{"note": "For quick reference, copied from above (set 4):"}
{"target": "MAP4K2 (Homo sapiens, UniProt Q12851)", "remaining binding [%]": 95}
{"target": "MAP3K6 (Homo sapiens, UniProt O95382)", "remaining binding [%]": 91}
{"target": "PRKD3 (Homo sapiens, UniProt O94806)", "remaining binding [%]": 92}
